Published values collected from several papers.
Protocols differ between the studies behind these lines.

SMILES	target	assay	system	conditions	inhibition [%]
O=C(Nc1nc2cccc(-c3ccc(CN4CCS(=O)(=O)CC4)cc3)n2n1)C1CC1	NLRP3 inflammasome	–	–	10 µM	90.6
O=C(Cc1ccc2ccccc2c1)N[C@H]1CCOC1=O	ExpR1 (Pectobacterium carotovorum)	cellulase activity, antagonist	Pectobacterium carotovorum, single-ExpR1 strain	5 µM, 4 h, added: OHHL 5 µM	58
CC(C)CC(=O)OC[C@H]1O[C@@](C#N)(c2ccc3c(N)ncnn23)[C@H](O)[C@@H]1O	adenosine transporter guinea pig	radioligand binding	–	20 µM	49
CCCCCCCCCC(=O)N[C@H]1CCOC1=O	ExpR1 (Pectobacterium carotovorum)	cellulase activity, antagonist	Pectobacterium carotovorum, single-ExpR1 strain	5 µM, 4 h, added: OHHL 5 µM	91
CC[C@@](C)(Nc1ccnc(-c2c[nH]c3ncccc23)n1)C(=O)NCC(F)(F)F	NLRP3 inflammasome	–	–	10 µM	-4.44
c1ccc(C(NCCNC(c2ccccc2)c2ccccc2)c2ccccc2)cc1	phorbol ester site, mouse	binding	–	10 µM, Eurofins selectivity panel	-13
O=C(CCc1ccc(Br)cc1)N[C@H]1CCOC1=O	ExpR1 (Pectobacterium carotovorum)	cellulase activity, antagonist	Pectobacterium carotovorum, single-ExpR1 strain	5 µM, 4 h, added: OHHL 5 µM	78
Cc1cc(Nc2cc(N3CCN(C)CC3)nc(Sc3ccc(NC(=O)C4CC4)cc3)n2)n[nH]1	NLRP3 inflammasome	–	–	10 µM	26.9
C[C@H](C(=O)N[C@H]1COc2ccccc2[C@@H]1S(C)(=O)=O)c1ccc(F)cc1	GABA transporter (rat)	Eurofins selectivity panel	–	10 µM	-4
